{"data": "Published values gathered from unrelated publications", "TYK2": "Non-receptor tyrosine-protein kinase TYK2 (TYK2, Homo sapiens, UniProt P29597)", "TYK2 JH1": "Non-receptor tyrosine-protein kinase TYK2, JH1 (TYK2, Homo sapiens, UniProt P29597)", "note": "Lines come from different studies, so protocols differ.", "UniProt P29597, sequence (whole entry, looked up)": "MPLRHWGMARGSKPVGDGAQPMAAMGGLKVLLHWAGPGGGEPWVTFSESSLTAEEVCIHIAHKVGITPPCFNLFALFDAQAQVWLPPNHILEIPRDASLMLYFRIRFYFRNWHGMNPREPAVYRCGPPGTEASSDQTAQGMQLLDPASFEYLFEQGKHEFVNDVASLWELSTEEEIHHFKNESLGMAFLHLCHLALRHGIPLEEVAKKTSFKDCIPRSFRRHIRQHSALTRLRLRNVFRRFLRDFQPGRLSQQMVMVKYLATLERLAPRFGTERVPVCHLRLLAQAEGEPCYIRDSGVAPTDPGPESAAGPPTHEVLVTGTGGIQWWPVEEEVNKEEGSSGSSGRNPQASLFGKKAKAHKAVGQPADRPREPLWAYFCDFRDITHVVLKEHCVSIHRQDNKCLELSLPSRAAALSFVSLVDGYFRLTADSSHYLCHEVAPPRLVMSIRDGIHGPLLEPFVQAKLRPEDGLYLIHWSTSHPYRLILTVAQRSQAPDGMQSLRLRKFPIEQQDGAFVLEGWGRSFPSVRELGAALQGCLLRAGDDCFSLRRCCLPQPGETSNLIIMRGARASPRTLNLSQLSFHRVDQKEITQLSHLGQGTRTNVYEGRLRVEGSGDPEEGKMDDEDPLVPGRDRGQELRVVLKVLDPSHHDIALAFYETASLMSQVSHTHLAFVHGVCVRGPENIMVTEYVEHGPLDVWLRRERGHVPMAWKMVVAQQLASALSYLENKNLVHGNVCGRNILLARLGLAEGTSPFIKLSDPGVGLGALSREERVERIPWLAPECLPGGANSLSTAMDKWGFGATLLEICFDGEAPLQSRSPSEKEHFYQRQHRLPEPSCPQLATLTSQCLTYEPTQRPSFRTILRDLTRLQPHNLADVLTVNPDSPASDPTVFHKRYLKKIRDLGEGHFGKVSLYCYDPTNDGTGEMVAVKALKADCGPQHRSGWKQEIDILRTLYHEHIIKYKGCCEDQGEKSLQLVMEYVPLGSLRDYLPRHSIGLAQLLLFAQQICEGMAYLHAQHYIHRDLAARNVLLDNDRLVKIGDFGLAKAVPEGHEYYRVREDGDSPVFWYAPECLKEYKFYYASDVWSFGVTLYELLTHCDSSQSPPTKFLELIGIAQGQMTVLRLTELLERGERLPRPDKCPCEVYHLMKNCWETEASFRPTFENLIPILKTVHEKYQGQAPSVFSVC"}
{"Structure (SMILES)": "C[C@H](NCc1ccc(-c2ccc(C(F)(F)F)cc2)cc1)C(N)=O", "target": "TYK2", "assay": "cell-free assay, competition with immobilised ligand", "conditions": "1 µM", "measurement": "inhibition", "result": "44%"}
{"Structure (SMILES)": "Nc1ccc(/C=C/C(=O)N2CCc3c(oc4c(-c5ccc(F)cc5)cc(-c5ccc(C(=O)N6CCC(F)(F)CC6)cn5)cc34)C2)cn1", "target": "TYK2 JH1", "assay": "binding, competition with immobilised ligand", "conditions": "1 µM", "measurement": "remaining binding", "result": "100%"}
{"Structure (SMILES)": "O=C(CN1CN(c2ccccc2)C2(CCN(C(=O)c3cnc4[nH]ncc4c3)CC2)C1=O)NCC(F)(F)F", "target": "Non-receptor tyrosine-protein kinase TYK2, JH1 domain (TYK2, Homo sapiens, UniProt P29597)", "assay": "inhibitor", "conditions": "concentration not given", "measurement": "inhibition", "result": "< 50%"}
{"Structure (SMILES)": "CC(C)[C@H]1NC(=O)C[C@H]2/C=C/CCSSC[C@@H](NC1=O)C(=O)N[C@H](Cc1cccc3ccccc13)C(=O)NCC(=O)O2", "target": "TYK2", "assay": "enzyme activity, inhibitor", "conditions": "10 µM", "measurement": "inhibition", "result": "6.4%"}
{"Structure (SMILES)": "CN(C)[C@H]1C[C@@]23CC[C@@]4(O2)C(=CC[C@]2(C)[C@@H](c5ccc6ccncc6c5)CC[C@H]24)C=C3[C@@H](O)[C@@H]1O", "target": "Non-receptor tyrosine-protein kinase TYK2, JH2 pseudokinase domain (TYK2, Homo sapiens, UniProt P29597)", "assay": "ATP probe labelling, inhibitor, KiNativ profiling", "conditions": "0.1 µM", "measurement": "inhibition", "result": "2.4%"}
{"Structure (SMILES)": "CS(C)(=O)=Nc1ccc(-c2ccc(-c3nc4cc(O[C@@H]5CO[C@H]6[C@@H]5OC[C@H]6O)[nH]c4cc3F)cc2)cc1", "target": "TYK2", "assay": "enzyme activity, inhibitor", "conditions": "10 µM", "measurement": "inhibition", "result": "12%"}
{"Structure (SMILES)": "O=C(N[C@@H]1c2ccccc2C[C@H]1N1CCCC1)c1ccc(-c2ccnc3[nH]ccc23)nc1", "target": "TYK2 JH1", "assay": "binding, competition with immobilised ligand", "conditions": "3 µM", "measurement": "remaining binding", "result": "12%"}
{"Structure (SMILES)": "CCOC(=O)[C@@H]1Cc2c(cc([N+](=O)[O-])cc2[N+](=O)[O-])[C@H](O)[C@]12C(=O)Nc1ccc(Br)cc12", "target": "TYK2", "assay": "KINOMEscan", "conditions": "100 nM", "scale": "baseline: DMSO control", "measurement": "remaining binding", "result": "72%"}
{"note": "Some of these lines once more:"}
{"Structure (SMILES)": "O=C(N[C@@H]1c2ccccc2C[C@H]1N1CCCC1)c1ccc(-c2ccnc3[nH]ccc23)nc1", "target": "TYK2 JH1", "assay": "binding, competition with immobilised ligand", "conditions": "3 µM", "measurement": "remaining binding", "result": "12%"}
